Published values from different studies.
Every numbered part comes from another study and shows a few of its results, in no order.

Block 1 — method: RNA Bind-n-Seq; form: RNA; medium: in vitro; concentration: 365 nM; relative to: no-protein control; direction: higher = stronger binding; endpoint: RBNS enrichment (R)
Target: RNA binding protein fox-1 homolog 2, RRM domain, GST-SBP tag (RBFOX2, Homo sapiens, UniProt O43251-10, residues 100-194)
Notes: natural RNA segment, single round, ends assumed
Shared flanks, not repeated: GGGAGUUCUACAGUCCGACGAUC … UGGAAUUCUCGGGUGCCAA
Construct (chain): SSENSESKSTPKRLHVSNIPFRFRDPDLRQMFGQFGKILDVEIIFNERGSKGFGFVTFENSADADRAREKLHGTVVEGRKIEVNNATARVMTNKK
UUUCAAAAUAAAACUACCCAUCCUCAUUCAACACUUCCAAUGGGAAAAUUCAGAGAUGAGAUCUUAACACAGCUUCACUCAGGAAGAGACUCACAUGACAGAGCAACUCU: 0.76
CCUGGUUUAAAACCAACAAUGAUGCCUAGUGAGUAUGUGUCCACAGGCCAUAACAGGGUAGAAGAGAGACAUCGUGCAACCCAAUGAGUAGUGAAGGGACUGUGUUGCUU: 2.12
UAAUGGAGUCGUCAGACGCCUCCGCUUACCGUGAACCAGUAUGAGCUUGGGAGAAAGGAACUGGAAGAACAUGAAAAAGCAGGGGCAUGUGUAGACAUUAGUGAAAAUUA: 1.13
UUCCCAGCUGCUGUAACGGAGCCACCUCCAACUCUAACAAUAAACCAAGUUCAUUGCAGAUAGUGUAGUGCUGCUUAGGCUUUUUCUGACUCCAUACAUGCUUAGUUACU: 0.324
GUAUAUGUCUGUCUUUCUCAUUAGAUUAUACGCUCCUUGUGGGCAGGGUCUGUCUUUUUCACCUUUGUACCUUUCAUGGCAUCUAGCAUAGUGCUUUGCACAUAGUCGUC: 0.838
UGCUGCAUACAGCGGGCACAGAUGCAUCUUGUUACAUGUAAGAAAAAGCUGUAUUUGAACAGAGCAUGCGUUUAAAGCCCUUAACAAAUUCAUCACAUAAUCUUAAAUUG: 6.43
AUAUGGGUGUUACAUUGCAAAAAUCUCUAUCUUUGUUCUAUUCACAUGCUUAAAGAAGUAAGAAAUCUUUUGUGGAUAUGUAAUUAUACAUAUAAAGUAUAUAUAUAUGU: 0.661
CCCGCCCCCGCCUUCCCUCUUCCCUCUUCCCUCUCCCUGCCCAGCCCUCCCUUCCUUCCUCUGCCGGCAAGGCAGGGACCCACAGUGGCUGCCUGCCUCCGGGAGGGAAG: 0.701
CUCCUCCAUGCCUGACCAACAGGCCCAGCUUUCCCUGCCAGGCCCUUUGCACUGAGGACACAGAUCCCGGGGAGCUGUGAGGGCCACCGGUGGGCAGUGGGUGGAUCCUG: 0.375
GAGUCCUACCCACUCUGUCCCCAUCACCUUUCUCCACUGGGUGCAGAUCCUAGCUCCGCCUCCUGGGCAGUCCUUCUGAAAAGUCCCAUGUAAGCAGCAAAGGGGCGUAA: 0.447
AAAGGAUUUUACCAAAGCAUCAAUACAACCAGCCCAACCAUCGGUCCACACCUGGGCAUUUGGUGAGAGUCAAAGCUGACCAUGGAUCCCUGGGGCCAACGGCAACAGCA: 1.04
CUUAAAGUUAAAAGAAAAUACAGAAUACCAGCAGAACUUGAUUAUUGUUUUCUGUCCAAACUUCUUAUGACUUUAGUUUUUCAUCAGUCAAUAAAAUUAAUUUACUCUUC: 0.638

Block 2 — method: RNA Bind-n-Seq; form: RNA; medium: in vitro; concentration: 1 µM; notes: whole 134-nt RNA, ends assumed; added: 150 mM KCl; relative to: input library; direction: higher = stronger binding; endpoint: log2 enrichment
Target: Ras GTPase-activating protein-binding protein 1, RRM domain (G3BP1, Homo sapiens, UniProt Q13283)
Chain of UniProt Q13283 (whole entry, looked up): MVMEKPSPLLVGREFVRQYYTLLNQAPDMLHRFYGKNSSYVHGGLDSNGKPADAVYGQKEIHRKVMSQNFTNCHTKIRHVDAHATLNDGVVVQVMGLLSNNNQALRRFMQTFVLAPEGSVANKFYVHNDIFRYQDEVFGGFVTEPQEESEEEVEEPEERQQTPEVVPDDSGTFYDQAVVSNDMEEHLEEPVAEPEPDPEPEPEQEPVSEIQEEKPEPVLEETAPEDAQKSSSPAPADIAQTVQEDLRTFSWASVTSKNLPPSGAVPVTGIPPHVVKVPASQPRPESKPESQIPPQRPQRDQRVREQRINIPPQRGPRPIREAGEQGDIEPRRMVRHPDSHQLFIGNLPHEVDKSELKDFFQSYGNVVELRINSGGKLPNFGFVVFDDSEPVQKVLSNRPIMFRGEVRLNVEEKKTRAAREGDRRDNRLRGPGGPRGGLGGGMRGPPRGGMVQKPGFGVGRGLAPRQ
Shared flanks, not repeated: GGGAGUUCUACAGUCCGACGAUC … UGGAAUUCUCGGGUGUCAAGG
AGUCCUGUGCUACACAUCGUAUGUACCGAAUCGGGAAAGGGUUUUUGGGUUUUUGGGAAAGUAUUAUGUUACGCCGUUCGGAUCUGCACU: 0.326
UCCUGUGCUACACAUCGUAUGUACCGAAUCGGGAAAAAAGGGAAAAAAGGGAAAAAAGGAAAGUAUUAUGUUACGCCGUUCGGAUCUGCA: 0.0605
GUCCUGUGCUACACAUCGUAUGUACCGAAUCGGGAAAAAGGGUUUUUGGGUUUUUGGGAAAGUAUUAUGUUACGCCGUUCGGAUCUGCAC: 0.062
AGUCCUGUGCUACACAUCGUAUGUACCGAAUCGGCCCCGGGCCCCGGGGCCCCGGGGAAAGUAUUAUGUUACGCCGUUCGGAUCUGCACU: -0.581
CCUCAAGUCCUGUGCUACACAUCGUAUGUACCGAAUCGGGGAGGGGAGGGAGGAAAGUAUUAUGUUACGCCGUUCGGAUCUGCACUUCCA: -0.13
UCCUGUGCUACACAUCGUAUGUACCGAAUCGGGUUUUUUUGGGUUUGGGUUUUUUUGGGAAAGUAUUAUGUUACGCCGUUCGGAUCUGCA: -0.192
AGUCCUGUGCUACACAUCGUAUGUACCGAAUCGGGUUUUGGGUUUUGGGGUUUUGGGGAAAGUAUUAUGUUACGCCGUUCGGAUCUGCAC: 0.44
ACCAUGCAGGUGGGCAUCUUUGGGAAGUAAAGCAAGGGGGGGAUAGGGAGGGGGGUAACACUUUGGGAACAGGUGGUCCCAGGUCGUUUC: -0.472
CCUCAAGUCCUGUGCUACACAUCGUAUGUACCGAAUCGGAGGGAGGGGAGGGGAAAGUAUUAUGUUACGCCGUUCGGAUCUGCACUUCCA: -0.0259
CAACGUUGAAAUGGAUUGGGUGUUGAAGCAUACUGGUCCAAAUAGUCCUGACACGGCCAAUGAUGGCUUUGUACGGCUUAGAGGACUUCC: -0.362
ACCAUGCAGGUGGGCAUCUUUGGGAAGUGGGGCAAGGGGGGGAUAGGGAGGGGGUUAACACUUUGGGAACAGGUGGUCCCAGGUCGUUUC: 0.654
UCCUGUGCUACACAUCGUAUGUACCGAAUCGGAAAAAAGGGAAAAAAGGGAAAAAAGGGGAAAGUAUUAUGUUACGCCGUUCGGAUCUGC: 0.00368
UGUCAGGAUUAUGAAGAAGCUGUGCUCUUGCUGUUAGAAGGAGCUGCCUGGGAAGAAGCUUUGAGGCUGGUAAGAAUCUUGUAAAUCCUC: -0.224
CACAGACAACACGCACCCACACAGACACAGAGGGAAGGGGUUGGGAUGGGGACAGGGUGCACAGCAAAACGGGGUAGGACCCCAGCCCCU: -0.13

Block 3 — method: aptamer microarray, sandwich; form: DNA with 2'F-ANA; medium: in vitro; concentration: 200 nM; added: Cy3 exosite-II aptamer, 400 nM; direction: higher = stronger binding; endpoint: mean fluorescence intensity; oligonucleotide: GGTTGGTGTGGTTGG
Target: Prothrombin, mature alpha-thrombin (F2, Homo sapiens, UniProt P00734)
Notes: whole 15-mer aptamer, many near background
2'F-ANA at 1 3 4 5 6 7 8 12 15: 118 a.u.
2'F-ANA at 1 2 6 7 10 11 12 13 14: 148 a.u.
2'F-ANA at 1 3 4 5 10 14 15: 44.8 a.u.
2'F-ANA at 2 3 5 6 8 9 10 13: 49.5 a.u.
2'F-ANA at 4 7 10 15: 94.6 a.u.
2'F-ANA at 1 2 5 6 7 11 14 15: 56.4 a.u.
2'F-ANA at 2 3 5 6 7 9 10 12: 62.3 a.u.
2'F-ANA at 1 2 3 5 6 8 10 12 13: 49.6 a.u.
2'F-ANA at 1 2 3 8 9 11 13 14 15: 69.7 a.u.
2'F-ANA at 1 2 3 4 7 13 15: 119 a.u.
2'F-ANA at 1 2 9 10 12 14: 46 a.u.
2'F-ANA at 3 4 5 7 9 10 13 14: 49.3 a.u.
2'F-ANA at 1 3 5 6 9 13 14 15: 44.2 a.u.
2'F-ANA at 1 4 6 8 13 14: 116 a.u.
2'F-ANA at 2 7 8 9 12 14: 210 a.u.
2'F-ANA at 1 2 3 4 5 6 9 11 12 13: 68.5 a.u.
2'F-ANA at 1 2 5 7 8 9 10 13 14: 77.2 a.u.
2'F-ANA at 1 3 6 7 8 10 12 13 14: 80.8 a.u.
2'F-ANA at 2 7 10 11: 155 a.u.
2'F-ANA at 2 3 4 5 9: 113 a.u.
2'F-ANA at 5 7 10 11 12 15: 52.5 a.u.
2'F-ANA at 2 4 5 6 9 13 14: 59.4 a.u.
2'F-ANA at 1 4 9 11 12: 203 a.u.

Block 4 — method: protein binding microarray; form: double-stranded DNA, one strand shown; medium: in vitro; concentration: not given; relative to: not given; direction: higher = stronger binding; endpoint: E-score
Target: Histone acetyltransferase KAT6A, winged helix 1, GST fusion (KAT6A, Homo sapiens, UniProt Q92794, residues 1-85)
Notes: 8-mer, flanks averaged, mean of 2 arrays, mostly near background
Residues (chain): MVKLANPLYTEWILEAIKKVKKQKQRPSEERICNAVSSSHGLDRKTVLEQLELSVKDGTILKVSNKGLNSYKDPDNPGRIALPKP
GACCCGGC: 0.29
CTTGCAAA: -0.0785
TCATTGAA: -0.211
GCAACTAC: -0.0276
ATGTTACC: 0.153
ACAGCCGG: 0.268
CGTCACCA: 0.0292
CCATACGC: 0.0566
ATTCTACG: 0.0788
CCACCGGG: 0.262
AGCGGAAT: 0.202
CGACAACA: -0.00862
GCCTCAAA: -0.0365
ACGCTCAC: 0.136
CGCCATGA: 0.108
GGTAGTGA: -0.0442
CTTTTCCC: -0.0941
CGGTCTCA: 0.0189
CTCAGTCC: -0.133
AGCATCGG: 0.113
ATCGTCTA: -0.0813
AGTTAAAG: -0.0423
ACTTCTGG: -0.196
AATGGTAA: -0.199
ACATGGAC: -0.229
